{"data": "Values quoted from earlier work, collected from citations in different studies", "note": "Lines come from different studies, so protocols differ. Numbers after ± are the reported error."}
{"Compound": "Cc1cc(/C=C/C#N)cc(C)c1-n1cnc2cnc(Nc3ccc(C#N)cc3)nc21", "organism": "HIV-1 wild type", "effect on": "viral replication", "method": "single-round infection", "EC50 [nM]": "0.5 ± 0.1"}
{"Compound": "O=c1c(O)ccccc1O", "organism": "hepatitis B virus", "effect on": "viral replication", "EC50 [nM]": 1700}
{"Compound": "Cc1nc(N(C)C(=O)Nc2ccc(-c3ccccc3)cc2)sc1S(=O)(=O)NC1CC1", "organism": "herpes simplex virus 2", "effect on": "viral replication", "EC50 [nM]": 100}
{"Compound": "Cc1cc(C#N)cc(C)c1Oc1nc(NC2CCN(Cc3ccc(S(N)(=O)=O)cc3)CC2)nc2ccsc12", "organism": "HIV-2", "effect on": "viral replication", "method": "MTT", "cells": "MT-4", "strain": "ROD", "EC50 [nM]": "≥ 228000"}
{"Compound": "O=C(Nc1cc2nc(-c3ccc(F)c(F)c3)cn2cn1)N1CC[C@H](F)C1", "organism": "Trypanosoma brucei", "EC50 [nM]": 20}
{"Compound": "CC(C)n1nc(-c2cnc3cc(OC4CC4)ccc3c2)c(C(N)=O)c1N", "organism": "Toxoplasma gondii", "EC50 [nM]": 420}
{"Compound": "Cc1ccc(F)cc1-c1ccc(CC(=O)N(C)c2nc(C)c(S(N)(=O)=O)s2)cc1", "organism": "herpes simplex virus 1", "effect on": "viral replication", "EC50 [nM]": 100}
{"Compound": "COC(=O)NC(C(=O)NN(Cc1ccc(-c2ccccc2)cc1)CC(O)(Cc1ccccc1)C(=O)NC1c2ccccc2CC1O)C(C)(C)C (centres unmarked)", "organism": "HIV-1", "effect on": "viral replication", "cells": "MT-4", "EC50 [nM]": 700}
{"Compound": "Cc1nc(N(C)C(=O)Cc2ccc(-n3cccn3)cc2)sc1S(N)(=O)=O", "organism": "herpes simplex virus 1", "effect on": "viral replication", "EC50 [nM]": 10}
{"Compound": "CNC(=O)C(NC(=O)C(O)(Cc1ccccc1)CN(Cc1ccc(Br)cc1)NC(=O)C(NC(=O)OC)C(C)(C)C)C(C)(C)C (centres unmarked)", "organism": "HIV-1", "effect on": "viral replication", "cells": "MT-4", "EC50 [nM]": "> 10000"}
{"Compound": "Fc1cccc(COc2ccc(Nc3ncnc4ccc(-c5cccc(N6CCOCC6)c5)cc34)cc2Cl)c1", "organism": "Leishmania major", "notes": "intracellular amastigotes", "EC50 [nM]": "> 8000"}
{"Compound": "CCOP(=O)(CCCn1cc(Cn2c(=O)n(C(=O)c3ccccc3)c(=O)c3ccccc32)nn1)OCC", "organism": "Felid alphaherpesvirus 1", "effect on": "viral replication", "EC50 [nM]": 24000}
{"Compound": "Cc1nc(N(C)C(=O)Cc2ccc(-c3ccccc3)cc2)sc1S(N)(=O)=O", "organism": "herpes simplex virus 2", "effect on": "viral replication", "EC50 [nM]": 5}
{"Compound": "Cc1cn(C2C=CC(COP(=O)(O)OP(=O)(O)OP(=O)(O)O)O2)c(=O)[nH]c1=O (centres unmarked)", "organism": "HIV-2", "effect on": "viral replication", "cells": "CEM/0", "strain": "ROD", "EC50 [nM]": "400 ± 260"}
{"Compound": "O=C1Cc2ccccc2C(=O)N1O", "organism": "hepatitis B virus", "effect on": "viral replication", "cells": "HepDES19", "strain": "genotype D", "EC50 [nM]": 4200}
{"Compound": "CNS(=O)(=O)c1sc(N(C)C(=O)Nc2ccc(-c3ccccc3)cc2)nc1C", "organism": "herpes simplex virus 1", "effect on": "viral replication", "EC50 [nM]": 1}
{"Compound": "O=C(Nc1nc2cc(F)c(F)cc2s1)c1sc(Br)cc1Br", "organism": "Norovirus", "effect on": "antiviral activity", "EC50 [nM]": 530}
